# Experimental data collected from several papers.
# Each line is one published result; not all experiments were run side by side. Values joined by “and” are separate records of one study, mostly repeats; a detail may differ. ± marks the error that the study gave.
# Kir3.1/Kir3.2: Kir3.1/Kir3.2 (Homo sapiens, UniProt P48051+P48549)
# GAP50: Glideosome-associated protein 50 (GAP50, Plasmodium falciparum, UniProt Q8I2X3)
# NADH dehydrogenase [ubiquinone] iron-sulfur protein 7, mitochondrial/NADH dehydrogenase [ubiquinone] iron-sulfur protein 2, mitochondrial/MT-ND1: NADH dehydrogenase [ubiquinone] iron-sulfur protein 7, mitochondrial/NADH dehydrogenase [ubiquinone] iron-sulfur protein 2, mitochondrial/MT-ND1 (Homo sapiens, UniProt O75251+O75306+P03886)
# TOP2A: DNA topoisomerase 2-alpha (TOP2A, Homo sapiens, UniProt P11388)
# FFAR4: Free fatty acid receptor 4 (FFAR4, Homo sapiens, UniProt Q5NUL3)
# TRPM8: Transient receptor potential cation channel subfamily M member 8 (TRPM8, Homo sapiens, UniProt Q7Z2W7)
# Maoa: Amine oxidase [flavin-containing] A (Maoa, Rattus norvegicus, UniProt P21396)
Structure (SMILES),target,assay,system,conditions,how to read,endpoint,result
O=C(COc1cc(Cl)ccc1Cl)Nc1cc(C2CC2)nn1C1CCC(F)(F)CC1,Kir3.1/Kir3.2,"thallium flux, activator",HEK293,,baseline: standard compound,Emax,51%
CCC1(O)CCCN(C(=O)c2ccc(-c3ccc(F)c(NC(=O)CCl)c3)cc2)C1 (stereo not shown),"DNA dC->dU-editing enzyme APOBEC-3B, C-terminal domain (Homo sapiens, UniProt Q9UH17)","covalent modifier, intact protein mass spectrometry, item: adduct +26104 Da",,"500 µM, 1 h, 20-fold molar excess",,protein adduct,5.5%
Cc1ccc(Oc2ccc(NC(=O)CNc3ccccc3N3CCCC3=O)cc2)cc1,GAP50,"binding, surface plasmon resonance",,1:1 binding model,,kon,164000 M⁻¹ s⁻¹
NC(=O)NOCCCCCCCCCCCCCCCCCCCC[P+](c1ccccc1)(c1ccccc1)c1ccccc1.O=C([O-])C(F)(F)F,"NADH dehydrogenase [ubiquinone] iron-sulfur protein 7, mitochondrial/NADH dehydrogenase [ubiquinone] iron-sulfur protein 2, mitochondrial/MT-ND1","complex I-dependent respiration, Seahorse XF96",HCT-116,"3 µM, 24 h",baseline: control,oxygen consumption rate,8.51 ± 1.25%
O=c1nc(SCc2cc(F)cc(C(F)(F)F)c2)nc(SCc2ccc3nc(OCCN4CCOCC4)ccc3c2)[nH]1,TOP2A,DNA cleavage,,31.25 µM,,mean linear DNA,0%
Nc1ncnc2c1ncn2[C@@H]1O[C@H](COP(=O)(O)CP(=O)(O)OP(=O)(O)O)[C@@H](O)[C@H]1O,"P2X purinoceptor 1 (P2RX1, Homo sapiens, UniProt P51575, F188L)",saturation binding,HEK293,1 nM,,specific binding,170 CCPM and 114 CCPM
CCCCCCCCNc1[nH]c(=O)[nH]c(=O)c1Br,FFAR4,"agonist, β-arrestin recruitment",CHO cells,10 µM,,activation,0 ± 1%
N#Cc1ccc2[nH]cc(CCCCN3CCN(c4ccc5oc(C(N)=O)cc5c4)CC3)c2c1,"SLC6A4 (Homo sapiens, UniProt P31645)","serotonin uptake, inhibitor",COS-7 expressing SLC6A4,"15 min preincubation, added: [3H]5-HT",,Hill coefficient,2.09 ± 0.41
O=C(CCCCC1SC[C@@H]2NC(=O)N[C@H]12)NCCCN(CCCN1CCN(C2CCCCC2)CC1)CC(=O)Nc1ccc(C(=O)c2ccccc2)cc1 (stereo in doubt),"TMEM97 (Homo sapiens, UniProt Q5BJF2)",radioligand binding,RT-4 cell membranes,,baseline: sigma1 Ki over sigma2 Ki,Ki ratio,2.56
c1coc(-c2n[nH]cc2-c2ccnc3ccccc23)c1,"YCK2 (Candida albicans, UniProt A0A1D8PKB4)","kinase binding, MIB/MS competition",Candida albicans lysate,1 µM,"baseline: DMSO, negative = stronger binding",log2 fold change,-0.44
CN1CCN(C(=O)c2ccc3cc(CCNc4ccnc5ccc(C#N)cc45)ccc3c2)CC1,"Cyclin-dependent kinase 19, with cyclin C (CDK19, Homo sapiens, UniProt Q9BWU1)",TR-FRET kinetics,,,baseline: compound over Senexin B,residence time ratio,2 to 3 fold
Cn1cnc2cc3c(Nc4cccc(Br)c4)ncnc3cc21,TRPM8,antagonist,HEK293,5 µM,baseline: control,remaining activity,90.8 ± 4.32%
NC(=O)NOCCCCCCCCCC[P+](c1ccccc1)(c1ccccc1)c1ccccc1.O=C([O-])C(F)(F)F,"NADH dehydrogenase [ubiquinone] iron-sulfur protein 7, mitochondrial/NADH dehydrogenase [ubiquinone] iron-sulfur protein 2, mitochondrial/MT-ND1","complex I-dependent respiration, Seahorse XF96",HCT-116,"50 µM, 24 h",baseline: control,oxygen consumption rate,2.72 ± 3.4%
O=C(COc1ccc(Cl)cc1Cl)Nc1nn(-c2ccccc2)c2cccnc12,Kir3.1/Kir3.2,"activator, thallium flux",HEK293,concentration not given,,activity,inactive
O=C(O)C1CCCNC1 (stereo not shown),"SLC6A6 (Homo sapiens, UniProt P31641, G62A)","binding, microscale thermophoresis",,"31.3 µM, room temperature, added: 50 nM labelled protein",higher = more binding,normalised MST signal,0.0335
CCCCCCCCN(C)c1cc(=O)[nH]c(=O)[nH]1,FFAR4,"agonist, β-arrestin recruitment",CHO cells,10 µM,,activation,1%
Cc1ccc(C(=O)Nc2ccc(S(=O)(=O)O)c3cc(S(=O)(=O)O)cc(S(=O)(=O)O)c23)cc1NC(=O)c1cccc(NC(=O)Nc2cccc(C(=O)Nc3cc(C(=O)Nc4ccc(S(=O)(=O)O)c5cc(S(=O)(=O)O)cc(S(=O)(=O)O)c45)ccc3C)c2)c1,GAP50,"binding, surface plasmon resonance",,1:1 binding model,,koff,0.0289 s⁻¹
NC(Cc1cc(I)c(Oc2cc(I)c(O)c(I)c2)c(I)c1)C(=O)O (stereo not shown),"Thyroxine 5-deiodinase (DIO3, Homo sapiens, UniProt P55073, T169S)",substrate,,"concentration not given, 10 min",baseline: DMSO control,deiodinase activity,97.9%
CC[C@@H]1[C@H](F)C(=O)N[C@@H]1COc1nccc2cc(C(N)=O)c(OC)cc12,"CAMK1D (Homo sapiens, UniProt Q8IU85)","ATP-site probe binding, ActivX profiling",THP-1 cell lysate,"0.01 mM, Lys2 site",,inhibition,-1.8%
C=CC(=O)N1CCC(COCC(=O)N2CCN(c3nc(-c4cnc(N)nc4C(F)F)nc(N4CCOC[C@@H]4C)n3)CC2)CC1,"FLT3 (Homo sapiens, UniProt P36888, D835V)",KINOMEscan,,1 µM,,remaining binding,49%
O=c1nc(SCc2cc(F)cc(C(F)(F)F)c2)nc(SCc2csc3ccc(Cl)cc23)[nH]1,TOP2A,decatenation,,"0.12 µM, replicate 1",,decatenated DNA,0%
N=C(N)c1ccc(OCCCCCOc2ccc(C(=N)N)cc2)cc1,GAP50,"binding, surface plasmon resonance",,1:1 binding model,,kon,39300 M⁻¹ s⁻¹
Oc1ccc(/C=C/c2cc(O)cc(O)c2)cc1,"O-methyltransferase (Sorghum bicolor, UniProt A0A1B6PFV1)",,,added: methionine 1 mM,,cooperativity factor,0.65
CCCCCCCNc1cc(=O)[nH]c(=O)[nH]1,FFAR4,"antagonist, β-arrestin recruitment",CHO cells,"10 µM, added: 4 µM TUG-891",,inhibition,18 ± 1%
C=CC(=O)N1CCC[C@@H](n2nc(-c3ccc(Oc4ccccc4)cc3)c3c(N)ncnc32)C1,"CSNK1A1L (Homo sapiens, UniProt Q8N752)",,,0.1 µM,,remaining activity,75.3%
NC(=O)NO,"NADH dehydrogenase [ubiquinone] iron-sulfur protein 7, mitochondrial/NADH dehydrogenase [ubiquinone] iron-sulfur protein 2, mitochondrial/MT-ND1","complex I-dependent respiration, Seahorse XF96",HCT-116,"100 µM, 24 h",baseline: control,oxygen consumption rate,87.9 ± 9.53%
Cc1[nH]c(N)nc1CCC(=O)c1cc(F)cc(F)c1.Cl,"HVCN1 (Homo sapiens, UniProt Q96D96, F150A)","proton current, inhibitor, inside-out patch clamp",,,,Hill coefficient,1.24 ± 0.08
N#Cc1ccsc1NC(=O)COc1ccc(Cl)cc1Cl,Kir3.1/Kir3.2,"thallium flux, activator",HEK293,,baseline: standard compound,Emax,< 10%
CC(C)(c1cc(Br)c(OCC2CO2)c(Br)c1)c1cc(Br)c(OCC2CO2)c(Br)c1 (stereo not shown),"ATP2A1 (Oryctolagus cuniculus, UniProt P04191)",ATPase activity,rabbit microsomes,"concentration not given, pH 7.3, added: ATP 5 mM",,SERCA1 inhibition,inactive
NC(=O)NOCCCCCCCCCCCC[P+](c1ccccc1)(c1ccccc1)c1ccccc1.O=C([O-])C(F)(F)F,"NADH dehydrogenase [ubiquinone] iron-sulfur protein 7, mitochondrial/NADH dehydrogenase [ubiquinone] iron-sulfur protein 2, mitochondrial/MT-ND1","complex I-dependent respiration, Seahorse XF96",HCT-116,"1.5 µM, 24 h",baseline: control,oxygen consumption rate,60.2 ± 2.79%
O=C(NCc1ccc(CNS(=O)(=O)c2ccccc2)cc1)c1c(Cl)cc(Cl)cc1Cl,"CXCR4 (Homo sapiens, UniProt P61073)","binding, inhibitor, competitive binding",MDA-MB-231,added: biotinylated TN14003,,EC,10 nM
C=CC(=O)N1CCN(c2nc(OC[C@@H]3CCCN3C)nc3c(F)c(-c4nc(N)cc(C)c4C(F)(F)F)c(Cl)cc23)[C@@H](C)C1,"GTPase KRas, GDP-bound (KRAS, Homo sapiens, UniProt P01116, Q61R)","binding, surface plasmon resonance",,,,association rate constant,154000 ± 5300 M⁻¹ s⁻¹
Nc1ccc(C(=O)O)cc1,"BEST1, with wild-type BEST1 (Homo sapiens, UniProt O76090, R218H)","ion current, whole-cell patch clamp",HEK293 co-expressing mutant and wild-type,"concentration not given, voltage 80 mV",,current density,9.35 pA/pF and 15.6 pA/pF and 17.5 pA/pF and 36.5 pA/pF and 5.11 pA/pF and 6.61 pA/pF and 22.1 pA/pF
COc1cccc(-n2nc3c4cc(Cl)ccc4[nH]cc-3c2=O)c1,"Gamma-aminobutyric acid receptor subunit alpha-4/beta-3, with delta subunit (Rattus norvegicus, UniProt P28471+P63079)","modulator, two-electrode voltage clamp",α4β3δ receptor,"10 µM, added: GABA EC3-10",baseline: GABA alone,GABA current,121 ± 4.5%
COc1ccc(CN)cc1,Maoa,substrate,,"pH 7.5, 25 °C",,kcat of deuterated substrate,0.0133 ± 0.00167 s⁻¹
COc1ccc(OC)c(NC(=O)N2CCOc3ccc(C)cc32)c1,"3-oxoacyl-[acyl-carrier-protein] reductase FabG (fabG, Pseudomonas aeruginosa, UniProt O54438)","enzyme activity, inhibitor, NADPH fluorescence",,"reverse reaction, added: 3-OH-decanoyl-NAC, NADP",,Hill slope,1.5
Ic1ccc(N2CCN(Cc3c[nH]c4ncccc34)CC2)cc1,"Drd2 (Rattus norvegicus, UniProt P61169)","forskolin-stimulated cAMP, agonist, AlphaScreen",HEK293 expressing D2,"concentration not given, added: forskolin",,cAMP decrease,42 ± 9.2%
O=C1Nc2ccc(Br)cc2/C1=C/c1cc2c([nH]1)CCCC2,TRPM8,antagonist,HEK293,5 µM,baseline: control,remaining activity,100 ± 11.3%
Cc1cc2c(c(=O)[nH]1)C(=O)O/C2=C\c1ccccc1OCC1CC1,"Dual specificity calcium/calmodulin-dependent 3',5'-cyclic nucleotide phosphodiesterase 1C, isoform PDE1C2 (PDE1C, Homo sapiens, UniProt Q14123)","enzyme activity, inhibitor",,added: 3H-cGMP substrate,,ligand efficiency,0.38
CCCCCCN(C)c1cc(=O)[nH]c(=O)[nH]1,FFAR4,"agonist, β-arrestin recruitment",CHO cells,10 µM,,activation,1%
NCc1ccc(F)cc1,Maoa,,,pKa-corrected,,log Kd,-5.8 M
CCCCCCCNc1[nH]c(=O)[nH]c(=O)c1N=O,FFAR4,"agonist, β-arrestin recruitment",CHO cells,10 µM,baseline: 30 µM TUG-891,agonist effect,0%
c1ccc(C(NCc2cccnc2)(c2ccccc2)c2ccccc2)cc1,"Potassium voltage-gated channel subfamily KQT member 1, with KCNE1 (KCNQ1, Homo sapiens, UniProt P51787)",IKs,,"300 pM, with KCNE1",,activation delay,0.6 ± 0.16 s
O=C(ON1C(=O)CCC1=O)c1cc(C(F)(F)F)cc(C(F)(F)F)c1,"CD209 antigen (CD209, Homo sapiens, UniProt Q9NNX6)","covalent labelling, intact protein MS",,20 µM,,kobs,0.0937 min⁻¹
Nc1ncnc2c1ncn2[C@@H]1O[C@H](COP(=O)(O)OP(=O)(O)O)[C@@H](O)[C@H]1O,"GUK1 (Homo sapiens, UniProt Q16774)",ITC,,"concentration not given, added: ATPγS",,ΔG of binding,-6.81 kcal/mol and -6.82 kcal/mol and -6.61 kcal/mol
O=C1c2ccccc2-[n+]2ccc3c([nH]c4ccccc43)c21,TRPM8,antagonist,HEK293,5 µM,,remaining activity,104 ± 13.7%
CCCCCCCCNc1[nH]c(=O)[nH]c(=O)c1N=O,FFAR4,"agonist, β-arrestin recruitment",CHO cells,10 µM,baseline: 30 µM TUG-891,agonist effect,0 ± 1%
Nc1nc2c(ncn2[C@@H]2O[C@@H]3COP(=O)(O)O[C@H]4[C@@H](O)[C@H](n5cnc6c(=O)[nH]c(N)nc65)O[C@@H]4COP(=O)(O)O[C@H]3[C@H]2O)c(=O)[nH]1,"Cell cycle histidine kinase CckA, CA domain (Caulobacter vibrioides, UniProt Q9X688)",ITC,,added: AMPPNP 5 mM,,ΔH,2.04 ± 0.0631 kcal/mol
CCCCCCNc1[nH]c(=O)[nH]c(=O)c1Br,FFAR4,"agonist, β-arrestin recruitment",CHO cells,10 µM,,activation,0%
COCCOCc1ccc(-c2cc3onc(-c4ccccc4)c3c(=O)n2C)cc1,"Nuclear receptor subfamily 4 group A member 2, LBD (Homo sapiens, UniProt P43354)","reporter gene, Gal4 hybrid reporter",,3 µM,baseline: vehicle,activation,1.48 fold
CCCCCCCCNc1cc(=O)n(C)c(=O)n1C,FFAR4,"agonist, β-arrestin recruitment",CHO cells,10 µM,,activation,1%
N[C@@H](CCCCB(O)O)C(=O)O,"Arginase (Schistosoma mansoni, UniProt Q6WVP6)",isothermal titration calorimetry,,concentration not given,,binding stoichiometry,0.84 ± 0.01

# Excerpt of the above:
Structure (SMILES),target,assay,system,conditions,how to read,endpoint,result
NCc1ccc(F)cc1,Maoa,,,pKa-corrected,,log Kd,-5.8 M
N#Cc1ccc2[nH]cc(CCCCN3CCN(c4ccc5oc(C(N)=O)cc5c4)CC3)c2c1,"SLC6A4 (Homo sapiens, UniProt P31645)","serotonin uptake, inhibitor",COS-7 expressing SLC6A4,"15 min preincubation, added: [3H]5-HT",,Hill coefficient,2.09 ± 0.41
CCCCCCN(C)c1cc(=O)[nH]c(=O)[nH]1,FFAR4,"agonist, β-arrestin recruitment",CHO cells,10 µM,,activation,1%
Cc1[nH]c(N)nc1CCC(=O)c1cc(F)cc(F)c1.Cl,"HVCN1 (Homo sapiens, UniProt Q96D96, F150A)","proton current, inhibitor, inside-out patch clamp",,,,Hill coefficient,1.24 ± 0.08
